Measurements collected from several papers.
Compare with care: the assays were run in different laboratories. ± marks the error that the study gave.

| SMILES | assay | system | setting | scale | measurement | result |
| --- | --- | --- | --- | --- | --- | --- |
| CC[C@H]1c2cc3[nH]c4c(c3C)C(=O)[C@H](C(=O)OC)c4c3nc(cc4[nH]c(cc(n2)[C@@H]1C)c(C(C)=O)c4C)[C@@H](C)[C@@H]3CCC(=O)NCC(=O)N[C@H](CC(=O)O)C(=O)N[C@H](CCC(=O)O)C(=O)N[C@@H](C(=O)N[C@H](CC(=O)O)C(=O)NCC(=O)N[C@H](CO)C(=O)NCC(=O)N[C@H](CCCCN)C(N)=O)C(C)C | – | nude mice, HT-1080 xenograft | intravenous, 25 nmol, 5 h to 24 h, low folate receptor tumour | – | tumour fluorescence change | decreased |
| CSCC[C@H](NC(=O)[C@H](CC(C)C)NC(=O)[C@H](Cc1c[nH]cn1)NC(=O)CNC(=O)[C@@H](NC(=O)[C@H](C)NC(=O)[C@H](Cc1c[nH]c2ccccc12)NC(=O)[C@H](CCC(N)=O)NC(=O)[C@H](CC(N)=O)NC(=O)CNC(=O)[C@H](Cc1ccc(O)cc1)NC(=O)[C@H](CCCNC(=N)N)NC(=O)[C@H](CCC(N)=O)NC(=O)[C@@H]1CCCN1C(=O)CN1CCN(CC(=O)O)CCN(CC(=O)O)CCN(CC(=O)O)CC1)C(C)C)C(N)=O [indium-111 labelled] | – | Swiss nu/nu mice, PC-3 xenograft | intravenous, 10 pmol, 1 h to 24 h post injection | – | tumour to kidney ratio change | 1 fold |
| CC[C@@]1(O)C(=O)OCc2c1cc1n(c2=O)Cc2cc3cc(OC(=O)CCCC(=O)NCC(=O)N[C@@H](Cc4ccccc4)C(=O)N[C@@H](Cc4ccccc4)C(=O)N[C@@H](Cc4ccc(OP(=O)(O)O)cc4)C(=O)NCCSSCCNC(=O)CCC(=O)N[C@@H](CCC(=O)O)C(=O)N[C@@H](CCCNC(=N)N)C(=O)NCC(=O)N[C@@H](CC(=O)O)C(=O)O)ccc3nc2-1 | LC-MS | nude mice, HepG2 xenograft, tumour | intravenous, 3 mg/kg HCPT equivalent, 24 h | relative to: free HCPT | tumour accumulation | 13.6 fold |
| N=C(N)NCCC[C@@H]1NC(=O)[C@H](CCCCNC(=O)CCOCCOCCOCCOCCNC(=O)CC[C@H](NC(=O)CCOCCOCCOCCOCCNC(=O)CC[C@H](NC(=O)CN2CCN(CC(=O)O)CCN(CC(=O)O)CCN(CC(=O)O)CC2)C(=O)NCCOCCOCCOCCOCCC(=O)N[C@@H](CCC(=O)NCCOCCOCCOCCOCCC(=O)NCCCC[C@@H]2NC(=O)[C@@H](Cc3ccccc3)NC(=O)[C@H](CC(=O)O)NC(=O)CNC(=O)[C@H](CCCNC(=N)N)NC2=O)C(=O)NCCOCCOCCOCCOCCC(=O)NCCCC[C@@H]2NC(=O)[C@@H](Cc3ccccc3)NC(=O)[C@H](CC(=O)O)NC(=O)CNC(=O)[C@H](CCCNC(=N)N)NC2=O)C(=O)NCCOCCOCCOCCOCCC(=O)NCCCC[C@@H]2NC(=O)[C@@H](Cc3ccccc3)NC(=O)[C@H](CC(=O)O)NC(=O)CNC(=O)[C@H](CCCNC(=N)N)NC2=O)NC(=O)[C@@H](Cc2ccccc2)NC(=O)[C@H](CC(=O)O)NC(=O)CNC1=O [indium-111 labelled] | – | athymic nude mice, female, U-87 MG glioma xenograft, tumour and lungs | intravenous, 4 h | relative to: tumour over lungs | tumour to tissue ratio | 3.86 ± 1.09 |
| N=C(N)NCCC[C@@H]1NC(=O)[C@H](CCCCNC(=O)CNC(=O)CNC(=O)CNC(=O)CC[C@H](NC(=O)CNC(=O)CNC(=O)CNC(=O)c2ccc(NN=Cc3ccccc3S(=O)(=O)O)nc2)C(=O)NCC(=O)NCC(=O)NCC(=O)NCCCC[C@@H]2NC(=O)[C@@H](Cc3ccccc3)NC(=O)[C@H](CC(=O)O)NC(=O)CNC(=O)[C@H](CCCNC(=N)N)NC2=O)NC(=O)[C@@H](Cc2ccccc2)NC(=O)[C@H](CC(=O)O)NC(=O)CNC1=O [technetium-99m labelled] | gamma counting | female athymic nu/nu mice, MDA-MB-435 breast cancer xenograft, tumour | intravenous, 120 min post-injection | – | tumour uptake | 7.6 ± 0.68 %ID/g |
| N=C(N)NCCC[C@@H]1NC(=O)[C@H](CCCCNC(=O)CCOCCOCCOCCOCCNC(=O)CC[C@H](NC(=O)CCOCCOCCOCCOCCNC(=O)c2ccc(NN)nc2)C(=O)NCCOCCOCCOCCOCCC(=O)NCCCC[C@@H]2NC(=O)[C@@H](Cc3ccccc3)NC(=O)[C@H](CC(=O)O)NC(=O)CNC(=O)[C@H](CCCNC(=N)N)NC2=O)NC(=O)[C@@H](Cc2ccccc2)NC(=O)[C@H](CC(=O)O)NC(=O)CNC1=O [technetium-99m labelled] | SPECT/CT | athymic nude mice, U-87 MG xenograft, tumour | intravenous, 37 MBq, 60 min | – | tumour uptake | ~7 %ID/mL |
| N=C(N)NCCC[C@@H]1NC(=O)[C@H](CCCCNC(=O)CCOCCOCCOCCOCCNC(=O)CN2CCN(CC(=O)O)CCN(CC(=O)O)CCN(CC(=O)O)CC2)NC(=O)[C@@H](Cc2ccccc2)NC(=O)[C@H](CC(=O)O)NC(=O)CNC1=O [indium-111 labelled] | – | athymic nude mice, female, U-87 MG glioma xenograft, tumour and brain | intravenous, 72 h | relative to: tumour over brain | tumour to tissue ratio | 37.2 ± 10.4 |
| CCCC[C@H](NC(=O)CCCCCCCNC(=O)c1ccc(NN)nc1)C(=O)N[C@H]1CC(=O)NCCCC[C@@H](C(N)=O)NC(=O)[C@H](Cc2c[nH]c3ccccc23)NC(=O)[C@H](CCCNC(=N)N)NC(=O)[C@@H](Cc2ccccc2)NC(=O)[C@H](Cc2c[nH]cn2)NC1=O [technetium-99m labelled] | – | B16/F1 melanoma-bearing C57 mice, tumour | 4 h post-injection | relative to: uptake at 2 h | tumour retention | 97.2% |
| N=C(N)NCCC[C@@H]1NC(=O)[C@H](CCCCNC(=O)CNC(=O)CNC(=O)CNC(=O)CC[C@H](NC(=O)c2ccc(NN=Cc3ccccc3S(=O)(=O)O)nc2)C(=O)NCC(=O)NCC(=O)NCC(=O)NCCCC[C@@H]2NC(=O)[C@@H](Cc3ccccc3)NC(=O)[C@H](CC(=O)O)NC(=O)CNC(=O)[C@H](CCCNC(=N)N)NC2=O)NC(=O)[C@@H](Cc2ccccc2)NC(=O)[C@H](CC(=O)O)NC(=O)CNC1=O [technetium-99m labelled] | – | female athymic nu/nu mice, U-87 MG glioma, tumour | intravenous, dose not given, 120 min, tumour weight below 0.05 g | – | tumour uptake | < 2 %ID/g |
| N=C(N)NCCC[C@@H]1NC(=O)[C@H](CCCCNC(=O)CC[C@H](NC(=O)CCOCCOCCOCCOCCNC(=O)CN2CCN(CC(=O)O)CCN(CC(=O)O)CCN(CC(=O)O)CC2)C(=O)NCCCC[C@@H]2NC(=O)[C@@H](Cc3ccccc3)NC(=O)[C@H](CC(=O)O)NC(=O)CNC(=O)[C@H](CCCNC(=N)N)NC2=O)NC(=O)[C@@H](Cc2ccccc2)NC(=O)[C@H](CC(=O)O)NC(=O)CNC1=O [indium-111 labelled] | – | athymic nude mice, female, U-87 MG glioma xenograft, tumour and lungs | intravenous, 4 h | relative to: tumour over lungs | tumour to tissue ratio | 3.15 ± 0.4 |

For quick reference, copied from above:
| SMILES | assay | system | setting | scale | measurement | result |
| --- | --- | --- | --- | --- | --- | --- |
| N=C(N)NCCC[C@@H]1NC(=O)[C@H](CCCCNC(=O)CNC(=O)CNC(=O)CNC(=O)CC[C@H](NC(=O)CNC(=O)CNC(=O)CNC(=O)c2ccc(NN=Cc3ccccc3S(=O)(=O)O)nc2)C(=O)NCC(=O)NCC(=O)NCC(=O)NCCCC[C@@H]2NC(=O)[C@@H](Cc3ccccc3)NC(=O)[C@H](CC(=O)O)NC(=O)CNC(=O)[C@H](CCCNC(=N)N)NC2=O)NC(=O)[C@@H](Cc2ccccc2)NC(=O)[C@H](CC(=O)O)NC(=O)CNC1=O [technetium-99m labelled] | gamma counting | female athymic nu/nu mice, MDA-MB-435 breast cancer xenograft, tumour | intravenous, 120 min post-injection | – | tumour uptake | 7.6 ± 0.68 %ID/g |
| N=C(N)NCCC[C@@H]1NC(=O)[C@H](CCCCNC(=O)CNC(=O)CNC(=O)CNC(=O)CC[C@H](NC(=O)c2ccc(NN=Cc3ccccc3S(=O)(=O)O)nc2)C(=O)NCC(=O)NCC(=O)NCC(=O)NCCCC[C@@H]2NC(=O)[C@@H](Cc3ccccc3)NC(=O)[C@H](CC(=O)O)NC(=O)CNC(=O)[C@H](CCCNC(=N)N)NC2=O)NC(=O)[C@@H](Cc2ccccc2)NC(=O)[C@H](CC(=O)O)NC(=O)CNC1=O [technetium-99m labelled] | – | female athymic nu/nu mice, U-87 MG glioma, tumour | intravenous, dose not given, 120 min, tumour weight below 0.05 g | – | tumour uptake | < 2 %ID/g |
